# Measurements of several laboratories.
# Each numbered part is a random draw from the data of one study; scales do not carry over between parts.

# Study 1
# Target: Histone acetyltransferase KAT6A, winged helix 2, GST fusion (KAT6A, Homo sapiens, UniProt Q92794, residues 85-181)
# Technique: protein binding microarray
# Form: double-stranded DNA, one strand shown
# Sample: in vitro
# Tested at: not given
# Notes: 8-mer, flanks averaged, mean of 2 arrays, mostly near background
# Baseline: not given
# Direction: higher = stronger binding
# Construct (chain): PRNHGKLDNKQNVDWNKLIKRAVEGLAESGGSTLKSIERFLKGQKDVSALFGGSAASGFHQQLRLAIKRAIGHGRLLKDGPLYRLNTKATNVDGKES
Strand,E-score
AAGGCAGT,-0.00995
GGAGCACC,0.0862
AAGTCTCT,-0.145
GAAGGCTA,0.053
AAGGGTGG,-0.179
ACTTCCCT,-0.107
CTATGGTA,-0.137
AGGACTAG,-0.0684
ATGATTAG,-0.0442
AGATATCC,0.0423
AAAATCAA,0.0415
CTAAGATA,-0.129
CTACGGTC,-0.165
TCGATCCA,-0.155
AATCAATG,0.0102
ACTGGGTA,-0.00647
AATTTGAC,0.127
ATATCTCA,-0.0268
CCACTAGG,0.012
CTAGTGCC,0.0964
GATGAACC,0.0638

# Study 2
# Target: Ras GTPase-activating protein-binding protein 1, C-terminal RGG region (G3BP1, Homo sapiens, UniProt Q13283)
# Chain of UniProt Q13283 (whole entry, looked up): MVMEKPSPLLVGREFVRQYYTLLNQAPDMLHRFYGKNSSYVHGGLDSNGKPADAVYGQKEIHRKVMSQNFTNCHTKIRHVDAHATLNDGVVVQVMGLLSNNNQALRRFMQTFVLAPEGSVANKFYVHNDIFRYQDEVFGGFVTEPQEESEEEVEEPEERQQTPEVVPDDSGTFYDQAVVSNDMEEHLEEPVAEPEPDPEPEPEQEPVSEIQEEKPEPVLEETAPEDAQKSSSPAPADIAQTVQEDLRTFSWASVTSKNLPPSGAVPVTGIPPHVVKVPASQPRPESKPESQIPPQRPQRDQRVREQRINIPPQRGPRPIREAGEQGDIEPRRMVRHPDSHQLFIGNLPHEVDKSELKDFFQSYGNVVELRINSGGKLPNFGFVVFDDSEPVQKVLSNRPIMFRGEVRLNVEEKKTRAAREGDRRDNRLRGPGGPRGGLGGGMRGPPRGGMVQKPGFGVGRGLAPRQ
# Technique: RNA Bind-n-Seq
# Form: RNA
# Sample: in vitro
# Tested at: 1 µM
# Notes: whole 134-nt RNA, ends assumed
# With: 150 mM KCl
# Baseline: input library
# Direction: higher = stronger binding
Strand,log2 enrichment
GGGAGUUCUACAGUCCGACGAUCCAAGUCCUGUGCUACACAUCGUAUGUACCGAAUCGGCCCCGGCCCCGGCCCCGGGGAAAGUAUUAUGUUACGCCGUUCGGAUCUGCACUUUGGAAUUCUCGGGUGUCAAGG,-2.6
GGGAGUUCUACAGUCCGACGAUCGUCCUGUGCUACACAUCGUAUGUACCGAAUCGGGCCCCCGGGCCCCCGGGCCCCCGGGAAAGUAUUAUGUUACGCCGUUCGGAUCUGCACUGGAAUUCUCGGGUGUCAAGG,-1.98
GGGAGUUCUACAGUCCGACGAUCCCUGUGCUACACAUCGUAUGUACCGAAUCAAAUUUUUUUAAAUUUUUUUAAAUUUUUAAAAAAGUAUUAUGUUACGCCGUUCGGAUCUGCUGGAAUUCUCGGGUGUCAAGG,-2.66
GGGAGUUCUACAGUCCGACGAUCUCCUGUGCUACACAUCGUAUGUACCGAAUCGGGGUUUUUUUGGGGUUUGGGGUUUGGGGAAAGUAUUAUGUUACGCCGUUCGGAUCUGCAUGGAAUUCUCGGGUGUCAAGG,2.28
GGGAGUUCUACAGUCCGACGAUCGUCCUGUGCUACACAUCGUAUGUACCGAAUCGGGGAGGGGAAAGGGGUUUUUUUGGGGAAAGUAUUAUGUUACGCCGUUCGGAUCUGCACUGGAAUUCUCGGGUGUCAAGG,2.45
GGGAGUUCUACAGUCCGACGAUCUAGCAUAUUGCCUUGUUCACUACCGAGGAGAUGAGAAGAUUAAAGGUUUCAUAUGGGAUCUCAUUACUCCAACUGAAGAUGGACAGACACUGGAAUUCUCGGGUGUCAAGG,-0.928
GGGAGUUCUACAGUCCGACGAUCUCCUGUGCUACACAUCGUAUGUACCGAAUCGGGGUUUUUUUGGGGAAAAAGGGGAGGGGAAAGUAUUAUGUUACGCCGUUCGGAUCUGCAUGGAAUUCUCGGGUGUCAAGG,1.54
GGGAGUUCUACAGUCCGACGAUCAAGUCCUGUGCUACACAUCGUAUGUACCGAAUCAAAUUUAAAUUUAAACCCCCAAAAAAGUAUUAUGUUACGCCGUUCGGAUCUGCACUUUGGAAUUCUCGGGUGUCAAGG,-0.926
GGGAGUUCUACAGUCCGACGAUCGCAGGAAGUAAAGACAAAUGGAAAUGCUUCGGAUAGUGGCAGGGGUGGGGGUUGCUAAGGAAAGGGUGGGAUGGGAGUGGGUAAAGAGUUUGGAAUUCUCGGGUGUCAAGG,3.02
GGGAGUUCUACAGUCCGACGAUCACCAUGCAGGUGGGCAUCUUUGGGAAGUGGGGCGAGGGGGGGAUAGGGAGGGGGGUAACACUUUGGGAACAGGUGGUCCCAGGUCGUUUCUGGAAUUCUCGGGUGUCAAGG,-0.936
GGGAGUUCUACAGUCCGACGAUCCUGUGCUACACAUCGUAUGUACCGAAUCGGGCCCCCCCGGGCCCCCCCGGGCCCCCCCGGGAAAGUAUUAUGUUACGCCGUUCGGAUCUGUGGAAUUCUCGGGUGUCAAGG,-1.93
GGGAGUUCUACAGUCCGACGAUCACCAUGCAGGUGGGCAUCUUUGGGAAGUCGGGCAAGGGGGGGAUAGGGAGGGGGGUAACACUUUGGGAACAGGUGGUCCCAGGUCGUUUCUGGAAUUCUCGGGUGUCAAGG,-1.14
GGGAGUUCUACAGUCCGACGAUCAGUCCUGUGCUACACAUCGUAUGUACCGAAUCGGGUUUUUUUGGGUUUGGGAAAGGGAAAGUAUUAUGUUACGCCGUUCGGAUCUGCACUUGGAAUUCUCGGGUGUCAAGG,0.768
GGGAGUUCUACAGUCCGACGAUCAAGUCCUGUGCUACACAUCGUAUGUACCGAAUCGGAAAAGGGGAAAAGGGGAAAAGGAAAGUAUUAUGUUACGCCGUUCGGAUCUGCACUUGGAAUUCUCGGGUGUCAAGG,-1.14

# Study 3
# Target: RING finger protein unkempt homolog, zinc fingers 1-6, GST-SBP tag (UNK, Homo sapiens, UniProt Q9C0B0, residues 30-357)
# Chain of UniProt Q9C0B0 (30-357, looked up): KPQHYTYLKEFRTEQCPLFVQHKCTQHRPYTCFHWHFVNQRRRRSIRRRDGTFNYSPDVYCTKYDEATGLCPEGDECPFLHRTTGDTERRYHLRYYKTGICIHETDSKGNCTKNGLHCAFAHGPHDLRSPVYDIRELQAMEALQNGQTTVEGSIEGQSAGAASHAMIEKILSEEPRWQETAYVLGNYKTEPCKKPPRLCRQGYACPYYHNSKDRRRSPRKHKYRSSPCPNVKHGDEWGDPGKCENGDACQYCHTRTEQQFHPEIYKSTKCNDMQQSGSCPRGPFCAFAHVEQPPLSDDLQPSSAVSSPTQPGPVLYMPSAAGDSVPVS
# Technique: RNA Bind-n-Seq
# Form: RNA
# Sample: in vitro
# Tested at: not given
# Notes: RNA with constant flanks, human and mouse sites, ends assumed
# Baseline: input RNA pool
# Direction: higher = stronger binding
Strand,bound/input enrichment [ratio]
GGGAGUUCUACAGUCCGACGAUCUAUCUUUACAAGUACCUGUGGAGGCUGAUGGUGAAGGACAUGUCCAAGAUAUACAGCUUGUAUAGCACCCUCUUGGCUCAUAAAAAACUACAUAUAAGAAAUUUUGCAGCCGAAAGUUUUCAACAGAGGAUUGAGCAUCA,0.146
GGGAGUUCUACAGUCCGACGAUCGAUCCCCUUUUGUGCCACCUAUCCCCUCCCAUUUCUCCUCUGUCCUCUCCCCCUUUUCCAUCUUUCUUUUCCGUUUCCAAAGGAGCAAGCCAAAACCUCAAACCGGCGCCUCUUGGAGGCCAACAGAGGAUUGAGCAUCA,1.35
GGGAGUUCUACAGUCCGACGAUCCCUCUUGCCAGGAGUCCAUGUUUGUUCUACCCGAACUUUGGACUGUUAACUAGAGAAGUGAUAGACUGAUGAACCUUCUAGUGUUGUCUGCUCCAUACGGGAAAUGAGCUUCAAGGCCAACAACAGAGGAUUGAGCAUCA,0.192
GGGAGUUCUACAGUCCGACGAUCAACAUGACUAUUACUAAUGACUACCAGCACCUGCUUGUCAAUUCCAUUGCAAACUUUUUCCGUUUGCUAUCUCAGGGAGGUGGAAAAAUCAAGGUUGAGAUUUUGAAAAUCCUUUCGAAUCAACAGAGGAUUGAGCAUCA,0.133
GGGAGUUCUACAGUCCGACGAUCUGCUCGUUUGCUUCUUCCAUCCUUUCUUCUGAGGGAGGGGUCCUGUUGUAGUGUGAAUUCUAUAGUCUCGCUUGUCCUUGAAUUUAUGGAAACCCUUCAUUUCAGCUUCUCUAGUGUUGGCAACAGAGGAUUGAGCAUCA,0.681
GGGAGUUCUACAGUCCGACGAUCUUAUGGGUGUAAGAGGUUUGCAGGGGUUUGUGGGGAGUACGUGCCCACACAUAUGUACCAUAGUCAAUAUCCACGAGCUGGCAGAGCGUCACCGAAACAAGUACCCUGGAUGUACGCCUACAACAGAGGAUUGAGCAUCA,0.277
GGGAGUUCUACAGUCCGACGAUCUGCUUUCUAUCUCUGGGAAAAAGGAGCAGCAUUUGGCCAUGUUCUUUUGUUUUUCUAUUCCUGUCCCAAAUCAAAGAGCAUGGUUCUCAGGAAAACCAGUUCCCCAGUUUAAAAAAAAAACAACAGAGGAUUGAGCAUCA,0.182
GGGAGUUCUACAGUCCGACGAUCCUCAUUGUCUUAGGAUAUAAUGGAUCUCUCCCAAACGGUGAUAGAGGAAGGAGGAAAAGUAGGUUUGCUUUGUUUAAAAGACCUAAGGCAAAUGGGGUGAAGCCUAGCACCGUGCACAUUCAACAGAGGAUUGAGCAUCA,0.361
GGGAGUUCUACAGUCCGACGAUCAAAUCGGGCUGAAGCGACUGAGUCCGCGAUGGAGAGAGAAAAGGAACAGUUCCGUAAGCUCUUUAUUGGUGGCUUAAGCUUUGAAACCACAGAAGAAAGUUUGAGGAACUACUACGAACACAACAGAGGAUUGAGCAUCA,0.264
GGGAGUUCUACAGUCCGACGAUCCUGAAUAGCAAUAAAUAUUUUCCCAGCAGGGUUAGCAUAAAGGAAUCAUCUGUAGCGAAACUAGGAUCAGUAUGCCGUAGGAUUUACAGAAUAUUUUCACAUGCUUAUUUUCAUCAUCGGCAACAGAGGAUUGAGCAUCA,1.66
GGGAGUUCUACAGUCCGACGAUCACGAUGACGACCUGUCUGUUCGACACUGCACUAAUGCUUACAUGUUAGUCUACAUCAGGGAAUCAAAACUGAGUGAAGUUUUACAGGCGGUCACCGACCAUGAUAUUCCUCAGCAGUUGGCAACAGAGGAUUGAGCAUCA,0.14

# Study 4
# Target: RNA binding protein fox-1 homolog 2, RRM domain, GST-SBP tag (RBFOX2, Homo sapiens, UniProt O43251-10, residues 100-194)
# Technique: RNA Bind-n-Seq
# Form: RNA
# Sample: in vitro
# Tested at: 365 nM
# Notes: natural RNA segment, single round, ends assumed
# Baseline: no-protein control
# Direction: higher = stronger binding
Strand,RBNS enrichment (R)
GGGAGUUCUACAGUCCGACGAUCAAGGAAUGAUUGCUAUAUUAUAUAUAAUUUUUAUGUGAAGCCUGUUUGACUAAUGUGUCUGGACUACUUGUAACUAGUUUUAUGAGCCUGUCAUAAUUUGCCAGGGUUCCUGGAAUUCUCGGGUGCCAA,0.864
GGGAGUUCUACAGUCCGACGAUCAAGACAGUGGGCUCCAUGCCUCUUUCCCCUGGGGUUUGCUUCAGGGGCUCCUCCCCGAGGGCUUGCUCCUGGUGGCAGCAGCUGAGAUCAGGACAUCUGUGGCCCUGAGCUGGAAUUCUCGGGUGCCAA,0.41
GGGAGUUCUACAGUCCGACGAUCCAUGAAUGCAUCGUCCCUUUAUCUGUAAGAACCCUUAGUGUCCUGUAGGGGGACAGAAUGGGGUGGCCAGGUGGUGAUUUCUCUUUGACCAAUGCAUAGUUUGGCAGAAAUGGAAUUCUCGGGUGCCAA,13
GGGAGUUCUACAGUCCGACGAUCGGGUUUGCCAGUAGAACACUGCGUUCCAGUCACCCCGGUCUUGCCAGAAGAAACCAGCACCUCUUUCCCGUGGCUCCUGUGUUCAGAAUGUGGUAUUGGCUCUGGCCCAGUGGAAUUCUCGGGUGCCAA,2.01
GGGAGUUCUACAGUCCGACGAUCGGAAACGGAAUAAAAAUCUCUUAGAAACUUUUGCAGAUAAUUUGAUGUUGGGCAAAUAUAUAUAAUUAUUUUUUCUGGUAAAUUCAUGUCAGUAAUUUGUUGAAGAGUUAUGGAAUUCUCGGGUGCCAA,0.957
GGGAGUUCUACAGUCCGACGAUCCCGUUGGAACUAUCAGUGGCGUCUCCCAUGCACACGCCCUCUGCUUUCUCUUUCCUAGACUCGCGGUGCUCACAUCCAGACAUUACCUUGUUGGUAGCCCCCAAGUGGCGUGGAAUUCUCGGGUGCCAA,0.386
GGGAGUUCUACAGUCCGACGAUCUAAGCCUGGCUGGUGGGCAUAGUUAUUCUCAGCAUUGUGGUGGCAAAUGACGUUGGUUCUAGAGACUUAGAGACUUGGGCAAUAGGAUUUAACACUGCUAGGUAGCUCAGUGGAAUUCUCGGGUGCCAA,2.26
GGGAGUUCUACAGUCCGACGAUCACUCUAUACCAAGGAUAUUAUUAAAACUAGAAAUGACUGCAUUGAGAGGGAGUUGUGGGAAAUAAGAAGAAUGAAAGCCUCUCUUUCUGUCCGCAGAUCCUGACUUUUCCUGGAAUUCUCGGGUGCCAA,0.874
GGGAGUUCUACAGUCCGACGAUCACAGAUUUUCUUGGGAGCUUGAAUAGCCCUUCUUGGACAAUGGGGUCUGGAAAUAGGGCUGUCUGCUUAUGGAAAUGCCAUCUGUAGACCUUGAGAGUCAACUGUACAGAUGGAAUUCUCGGGUGCCAA,0.659
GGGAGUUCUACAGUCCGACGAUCGGCAGGCAGGGAGAGAAGACGCCUGGGCCUCUCCAUUGUUUGUUUCCCAGGGUGAUUUCCUCAGUGCACAGGCAGCUCGAGAUGGAGGGAGGACAGCCACCAACUAGCUCUGGAAUUCUCGGGUGCCAA,0.676
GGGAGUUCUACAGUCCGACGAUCAACUACAUCCUGGGCCUGGAAUAUGAUGAAGAGCAUCAGUGGAAAACCCACCCCACACGCCAUGGACCUCAGGGCACUCUCCUCCCUGCCCACAAAGACCUCCUGGGUGGUGGAAUUCUCGGGUGCCAA,0.948
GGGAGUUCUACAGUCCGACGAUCCUCUGUUCUCCCUGGGAAAGGUCAUCAUCUCUGUUCAGAUGGGGAAGUUGAGGCCCAGAGAAUUUAAAGCACAUGUUCAUUUCUGUUGUCAUGGAUACAAAGCUAGGUUUUGGAAUUCUCGGGUGCCAA,0.44
